Measurements from different studies.
Route: oral

For `C=C(C)[C@@H]1CC[C@]2(NCCN3CCS(=O)(=O)CC3)CC[C@]3(C)[C@H](CC[C@@H]4[C@@]5(C)CC=C(C6=CC[C@@](CF)(C(=O)O)CC6)C(C)(C)[C@@H]5CC[C@]43C)[C@@H]12`, the AUC(0-t) was 36000 ng·h/mL (healthy human volunteers, plasma; 200 mg, tablet, high-fat state, mean).
`CC(C)NC[C@@H](C(=O)N1CCN(c2ncnc3c2[C@H](C)C[C@H]3O)CC1)c1ccc(Cl)cc1` gave an AUC(0-t) of 726 ng·h/mL (human, hepatic impairment Moderate (Child-Pugh), plasma; 100 mg single, geometric mean).
`COc1cccc(-c2ccc(NC(=O)C3=C(C(=O)O)CCC3)c(F)c2)c1` has an AUC(0-t) of 47400 ng·h/mL (human, male, fed, plasma; 10 mg, single dose, geometric mean).
`CCOc1c([C@H](C)n2nc(C)c3c(N)ncnc32)cc(Cl)c(F)c1[C@@H]1CNC(=O)C1`: “AUC(0-t) geometric mean” 7.27 µM·h (healthy fasted humans, plasma; 10 mg).
With `Cc1cc(-c2nnc(N)nc2-c2ccc(F)cc2)cc(Cl)n1` the AUC(0-t) was 9290 ng·h/mL (human patients, plasma; 150 mg capsule, single dose, arithmetic mean).
The AUC(0-t) of `Cc1ccc(NC(=O)c2ccc(CN3CCN(C)CC3)cc2)cc1Nc1nccc(-c2cncc(-c3oncc3C)c2)n1` is reported as 109000 ng·h/mL (older healthy human adults, plasma; 125 mg single dose, fed, mean).
`CNc1nc(Nc2ccc(-n3cnc(C)n3)c(OC)c2)nc2c1CC[C@H]2c1ccc(F)cc1` gave an AUC(0-t) of 8020 ng·h/mL (human; 200 mg once daily, day 1, multiple ascending dose).
`C=CC(=O)N1CCC(CNc2ncnc(N)c2-c2ccc(Oc3ccccc3)cc2)CC1` has an AUC(0-t) ratio of 10% (healthy male human, plasma; 75 mg; relative to: compound over total radioactivity).
For `C=CC(=O)Nc1cc(Nc2ncc(C(=O)OC(C)C)c(-c3cn(C)c4ccccc34)n2)c(OC)cc1N(C)CCN(C)C`, the AUC(0-t) was 485 ng·h/mL (human, fasted; 120 mg single dose, arithmetic mean).

Repeated from above:
With `Cc1cc(-c2nnc(N)nc2-c2ccc(F)cc2)cc(Cl)n1` the AUC(0-t) was 9290 ng·h/mL (human patients, plasma; 150 mg capsule, single dose, arithmetic mean).
